Measured values pooled from the literature.
Compare with care: the assays were run in different laboratories. ± marks the error that the study gave.

Substance	test	system	conditions	how to read	endpoint	result
CN[C@@H]1[C@H](O)[C@H](NC)[C@H]2O[C@]3(O)[C@H](O[C@@H]2[C@H]1O)O[C@H](C)C[C@H]3NC(=O)Cc1ccccn1	glutathione conjugation	rat liver S9	100 µM, 2 h, pH 7.4, together with: glutathione 0.2 mM		parent remaining	99.8%
C[C@@H](c1ncncc1F)[C@](O)(Cn1cncn1)c1ccc(F)cc1F		patients, hematological disorders, CYP2C19 poor metabolizers, plasma	200 mg, 12 h, steady state, median		trough concentration	4310 ng/mL
S=C(NCCCc1c[nH]cn1)NCCCN(Cc1ccc(Cl)c(Cl)c1)c1ccc(Br)cn1		male C57BL/6 mice, plasma	intraperitoneal, 30 mg/kg, 24 h		plasma concentration	8.04 ng/mL
Cc1ccc(-c2cc(C(F)(F)F)nn2-c2ccc(S(N)(=O)=O)cc2)cc1	equilibrium dialysis	dogs, albumin H1 allele, plasma	4 µM		unbound fraction	1.86 ± 0.34%
CC[C@H](C)[C@H](NC(=O)[C@H](CCC(N)=O)NC(=O)[C@H](Cc1c[nH]cn1)NC(=O)[C@H](C)NC(=O)[C@H](CC(C)C)NC(=O)[C@H](CCCCN)NC(=O)[C@H](CCC(N)=O)NC(=O)[C@@H](NC(=O)[C@@H](NC(=O)[C@@H]1CSSC[C@H](NC(=O)CNC(=O)[C@H](Cc2ccccc2)NC(=O)[C@H](CO)NC(=O)[C@H](CCCNC(=N)N)NC(=O)[C@H](CC(C)C)NC(=O)CNC(=O)[C@H](CCC(N)=O)NC(=O)[C@H](Cc2ccccc2)NC(=O)[C@H](CC(N)=O)NC(=O)[C@H](CC(N)=O)NC(=O)[C@H](CCSC)NC(=O)[C@H](CO)NC(=O)[C@H](CCC(N)=O)NC(=O)[C@H](CCCNC(=N)N)NC(=O)[C@@H](N)Cc2ccc(O)cc2)C(=O)N[C@@H](CCCNC(=N)N)C(=O)N[C@@H](Cc2ccccc2)C(=O)NCC(=O)N[C@@H]([C@@H](C)O)C(=O)N1)[C@@H](C)O)C(C)C)C(=O)N[C@@H](Cc1ccc(O)cc1)C(=O)N[C@@H](CCC(N)=O)C(=O)N[C@@H](Cc1ccccc1)C(=O)N[C@H](C(=O)N[C@@H](CC(=O)O)C(=O)N[C@@H](CCCCN)C(=O)N[C@@H](CC(=O)O)C(=O)N[C@@H](CCCCN)C(=O)N[C@@H](CC(=O)O)C(=O)N[C@@H](CC(N)=O)C(=O)N[C@H](C(=O)N[C@@H](C)C(=O)N1CCC[C@H]1C(=O)N[C@@H](CCCNC(=N)N)C(=O)N[C@@H](CO)C(=O)N[C@@H](CCCCN)C(=O)N[C@H](C(=O)N[C@@H](CO)C(=O)N1CCC[C@H]1C(=O)N[C@@H](CCC(N)=O)C(=O)NCC(=O)N[C@@H](Cc1ccc(O)cc1)C(N)=O)[C@@H](C)CC)C(C)C)[C@@H](C)O		human, male, plasma	intravenous infusion, 15 ng/kg/min daily, 7 days, day 1		AUC(0-10h)	0.272 ± 0.0573 ng·h/mL
CNc1nc(Nc2ccc(-n3cnc(C)n3)c(OC)c2)nc2c1CC[C@H]2c1ccc(F)cc1		human, plasma	oral, 100 mg, multiple doses, once daily		AUC(0-t)	9080 ng·h/mL
COc1ccc2c(c1)c(CC(=O)O)c(C)n2C(=O)c1ccc(Cl)cc1		male ICR mouse, plasma	oral, 3 mg/kg, 24 h		AUC	4330 ng·h/mL
CS(=O)(=O)c1ccc2c(c1)C(=O)CCc1ccccc1C(=O)N2	nephelometry	aqueous buffer	30 min, pH 6.5		kinetic solubility	> 100 µg/mL
Teicoplanin	HPLC	critically ill adult patients, plasma	676 mg/day, steady state total concentration		trough concentration (Cmin)	20600 ± 10400 ng/mL
O=S(=O)(c1cc(Cl)c(O)c2ncccc12)C1CCCC1		rat Sprague-Dawley male, brain	oral, 10 mg/kg, 4 h		free concentration	5.6 nM
CN(C)C/C=C/C(=O)Nc1cc2c(Nc3ccc(F)c(Cl)c3)ncnc2cc1O[C@H]1CCOC1		human	oral, 60 mg once daily, day 27		t1/2 steady state	40.5 h
C[C@]12CC[C@@H]3c4ccc(OS(=O)(=O)O)cc4CC[C@H]3[C@@H]1CCC2=O		BME-UV cell monolayer on Transwell	100 µM, 4 h, apical to basolateral	relative to: support alone over monolayer	permeation rate constant ratio	≥ 80
CC[C@H](C)[C@@H]1NC(=O)[C@H](Cc2ccc(O)cc2)NC(=O)[C@@H](N)CSSC[C@@H](C(=O)N2CCC[C@H]2C(=O)N[C@@H](CC(C)C)C(=O)NCC(N)=O)NC(=O)[C@H](CC(N)=O)NC(=O)[C@H](CCC(N)=O)NC1=O	microdialysis, RIA	male knockout mouse, amygdala ECF	i.p., 12 µg		AUC	101 ± 51 pg·30 min/sample
COc1cc(/C=C/C(=O)CC(=O)/C=C/c2ccc(O)c(OC)c2)ccc1O	I-125 label, gamma counting	C57BL/6J mouse, hippocampus	IN 10 µg/mouse vs IP 100 µg/mouse, 30 min	relative to: intranasal over intraperitoneal	brain uptake ratio	5.21
C[C@H]1CO[C@@H]2Cn3cc(C(=O)NCc4ccc(F)cc4F)c(=O)c(O)c3C(=O)N12		HIV-infected adults, plasma	intramuscular, at Cmax, every 8 weeks, median		unbound fraction	0.00103
COc1ccc(-n2nc(C(N)=O)c3c2C(=O)N(c2ccc(N4CCCCC4=O)cc2)CC3)cc1		human male and female, plasma	oral, 10 mg, geometric least squares mean		AUC(0-tlast)	1680 ng·h/mL
CCN1C(=O)CNc2ncc(-c3ccc(-c4nc[nH]n4)nc3C)nc21		human, plasma	oral, 25 mg once daily, first dose		AUC(0-12h)	1230 ng·h/mL
C[N+]1(CC(=O)OC2CCCCC2)CCCCC1.[I-]		phosphate buffer with 2% DMSO	90 min, pH 7.4, theoretical maximum 200 µM		aqueous solubility	187 µM

Substance	test	system	conditions	how to read	endpoint	result
CC(C)NC[C@@H](C(=O)N1CCN(c2ncnc3c2[C@H](C)C[C@H]3O)CC1)c1ccc(Cl)cc1		human, normal hepatic function, plasma	oral, 100 mg single dose, reference group versus Mild	relative to: NCI classification	AUC(0-∞)	340 ng·h/mL
CS(=O)(=O)n1cc2c(n1)CN([C@H]1CO[C@H](c3cc(F)ccc3F)[C@@H](N)C1)C2		healthy male human, plasma	oral, 25 mg single, fasted, geometric mean		concentration at 168 h	20.6 nM
Cc1nc2cccc(OCC(C)(C)C(=O)NC(C)C)c2c(N)c1C(=O)O		female Sprague-Dawley rat, plasma	oral, 100 mg/kg, single dose		half-life	0.99 h
C=CC(=C)CCC1(C)C(C)CC(O)C23C(=CC(OC(=O)/C=C/C=C/CCCCC)CC12)C(OC(C)=O)OC3OC(C)=O (stereo not drawn)	haemolysis		500 µM		haemolysis	119%
COc1cc(Nc2ncc3c(n2)-c2ccc(Cl)cc2C(c2c(F)cccc2OC)=NC3)ccc1C(=O)O		children, UGT1A1 extensive metabolizers, no grade ≥2 toxicity, plasma	oral, 80 mg/m2, day 4, median		trough concentration	990 nM
O=C(O)[C@H]1/C(=C/CO)O[C@@H]2CC(=O)N21		male Sprague-Dawley rat, plasma	intravenous, 144 mg/kg		Vd	66.7 L/kg
CNC(=O)c1ccccc1Sc1ccc2c(/C=C/c3ccccn3)n[nH]c2c1		human	oral, fed, Form IV		oral bioavailability	45.7%
CN1CC[C@@H](NC(=O)Nc2ccc(C#N)cc2)C[C@@H]1c1nc2ccccc2[nH]1		human, normal and impaired hepatic function	oral, 100 mg single dose		tolerability	not toxic
CCCCN1CCCCC1C(=O)Nc1c(C)cccc1C (stereo not drawn)	convulsant	wild-type mouse	intravenous, 3.75, 5 and 6.25 mg/kg, 15 s, ≤5 Hz, peak seizure	relative to: baseline	EEG delta power increase	≥ 7 fold
O=C(c1cc(Cc2n[nH]c(=O)c3ccccc23)ccc1F)N1CCN(C(=O)C2CC2)CC1		cancer patients	oral, 400 mg twice daily, day 28, together with: pegylated liposomal doxorubicin		Cmin	3900 ± 2600 ng/mL
Oc1ccc(C(c2ccc(O)cc2)(C(F)(F)F)C(F)(F)F)cc1		male rat, plasma	intravenous, 34 mg/kg, single dose		half-life	8.01 h
CCCC[C@H](NC(C)=O)C(=O)N[C@H]1CCC(=O)NC[C@@H](C(=O)N[C@@H](Cc2c[nH]c3ccccc23)C(N)=O)NC(=O)[C@H](CCCNC(=N)N)NC(=O)[C@@H](Cc2ccccc2)NC(=O)[C@H](Cc2c[nH]cn2)NC1=O		healthy human, both sexes, plasma	subcutaneous, 1.0 mg once daily, day 7, arithmetic mean		Vss/F	200 L
COCCOC(=O)C1=C(C)NC(C)=C(C(=O)OC(C)C)C1c1cccc([N+](=O)[O-])c1 (stereo not drawn)		male Sprague-Dawley rat, plasma	oral, 12 mg/kg, together with: pravastatin 1 mg/kg		oral bioavailability	31.1%
C[C@H](Oc1ccc(-c2nc(-c3ccc4[nH]cnc4c3)no2)cc1C(F)(F)F)C(F)(F)F		cynomolgus monkey, aneurysm model, plasma	0.1 mg/kg once daily, 8 h post-dose, 2 weeks dosing		plasma concentration	13 ± 2.6 nM
Cc1c2c(n(-c3ccc(F)cc3Cl)c1-c1ccc(OS(=O)(=O)CCC(F)(F)F)cc1)CCN(N1CCCCC1)C2=O		cynomolgus monkey 4, plasma	intravenous infusion, 0.2 mg/kg, 90 min, PET study midpoint		plasma concentration	84 nM
CCCOc1ccc([C@H]2CNC(=O)N2c2ccc3[nH]cnc3c2)cc1		human, elderly, fasted, plasma	oral, 800 mg twice daily, tablet, day 11, geometric mean		AUC(0-12h)	24500 ng·h/mL
Cn1cnc2c(F)c(Nc3ccc(Br)cc3Cl)c(C(=O)NOCCO)cc21		ESRD on hemodialysis, plasma	oral, 50 mg, dosed after dialysis, median		unbound fraction	0.556%
O=C(/C=C/c1ccc(O)c(O)c1)O[C@H](Cc1ccc(O)c(O)c1)C(=O)O	UPLC-MS/MS	Wistar rat, microcirculation dysfunction model, plasma	oral, 100 mg/kg Salvia miltiorrhiza stem-leaf extract FS		MRT(0-inf)	5.01 ± 1.59 h

For quick reference, copied from above:
Substance	test	system	conditions	how to read	endpoint	result
CNC(=O)c1ccccc1Sc1ccc2c(/C=C/c3ccccn3)n[nH]c2c1		human	oral, fed, Form IV		oral bioavailability	45.7%
CCCOc1ccc([C@H]2CNC(=O)N2c2ccc3[nH]cnc3c2)cc1		human, elderly, fasted, plasma	oral, 800 mg twice daily, tablet, day 11, geometric mean		AUC(0-12h)	24500 ng·h/mL
CS(=O)(=O)c1ccc2c(c1)C(=O)CCc1ccccc1C(=O)N2	nephelometry	aqueous buffer	30 min, pH 6.5		kinetic solubility	> 100 µg/mL
C[C@H]1CO[C@@H]2Cn3cc(C(=O)NCc4ccc(F)cc4F)c(=O)c(O)c3C(=O)N12		HIV-infected adults, plasma	intramuscular, at Cmax, every 8 weeks, median		unbound fraction	0.00103
Teicoplanin	HPLC	critically ill adult patients, plasma	676 mg/day, steady state total concentration		trough concentration (Cmin)	20600 ± 10400 ng/mL
COc1cc(Nc2ncc3c(n2)-c2ccc(Cl)cc2C(c2c(F)cccc2OC)=NC3)ccc1C(=O)O		children, UGT1A1 extensive metabolizers, no grade ≥2 toxicity, plasma	oral, 80 mg/m2, day 4, median		trough concentration	990 nM
